Measurements pooled from the literature.
Values joined by “and” are separate records of one study, mostly repeats; a detail may differ. Numbers after ± are the reported error.
EGLN2: Prolyl hydroxylase EGLN2 (EGLN2, Homo sapiens, UniProt Q96KS0)
Chain of UniProt Q96KS0 (whole entry, looked up): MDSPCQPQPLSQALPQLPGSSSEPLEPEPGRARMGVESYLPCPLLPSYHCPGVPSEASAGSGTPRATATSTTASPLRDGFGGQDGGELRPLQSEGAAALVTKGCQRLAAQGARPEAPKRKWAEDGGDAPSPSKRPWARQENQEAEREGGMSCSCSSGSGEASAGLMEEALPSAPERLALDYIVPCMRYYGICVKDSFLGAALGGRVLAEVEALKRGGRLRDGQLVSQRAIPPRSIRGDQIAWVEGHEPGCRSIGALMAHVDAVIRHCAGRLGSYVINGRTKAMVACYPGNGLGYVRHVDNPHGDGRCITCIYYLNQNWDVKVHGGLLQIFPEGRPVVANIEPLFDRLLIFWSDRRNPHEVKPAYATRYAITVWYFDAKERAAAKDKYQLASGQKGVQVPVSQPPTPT
PSMB7 in 20S proteasome: Proteasome subunit beta type-7, in 20S proteasome (PSMB7, Homo sapiens, UniProt Q99436)
Chain of UniProt P08170 (whole entry, looked up): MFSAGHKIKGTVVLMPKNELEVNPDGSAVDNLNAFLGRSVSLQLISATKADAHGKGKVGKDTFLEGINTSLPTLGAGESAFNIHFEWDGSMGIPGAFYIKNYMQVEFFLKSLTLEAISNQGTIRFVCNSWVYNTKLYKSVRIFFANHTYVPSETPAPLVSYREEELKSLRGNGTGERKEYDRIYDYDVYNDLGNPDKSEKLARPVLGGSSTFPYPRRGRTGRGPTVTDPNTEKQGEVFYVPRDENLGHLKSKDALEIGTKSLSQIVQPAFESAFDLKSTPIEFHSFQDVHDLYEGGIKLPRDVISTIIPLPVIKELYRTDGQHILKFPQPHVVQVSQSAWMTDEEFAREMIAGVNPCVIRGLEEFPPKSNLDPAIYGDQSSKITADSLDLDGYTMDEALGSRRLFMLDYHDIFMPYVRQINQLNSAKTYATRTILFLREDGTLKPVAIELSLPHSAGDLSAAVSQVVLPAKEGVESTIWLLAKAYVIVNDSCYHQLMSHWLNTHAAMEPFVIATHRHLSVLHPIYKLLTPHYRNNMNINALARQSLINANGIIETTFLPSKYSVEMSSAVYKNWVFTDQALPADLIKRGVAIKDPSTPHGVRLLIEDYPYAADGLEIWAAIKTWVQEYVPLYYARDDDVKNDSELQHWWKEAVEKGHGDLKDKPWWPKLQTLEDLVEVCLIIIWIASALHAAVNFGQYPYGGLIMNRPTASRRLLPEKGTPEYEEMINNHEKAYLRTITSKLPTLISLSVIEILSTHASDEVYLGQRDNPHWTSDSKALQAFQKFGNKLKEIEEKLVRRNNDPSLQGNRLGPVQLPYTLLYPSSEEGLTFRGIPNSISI
Chain of UniProt Q99436 (whole entry, looked up): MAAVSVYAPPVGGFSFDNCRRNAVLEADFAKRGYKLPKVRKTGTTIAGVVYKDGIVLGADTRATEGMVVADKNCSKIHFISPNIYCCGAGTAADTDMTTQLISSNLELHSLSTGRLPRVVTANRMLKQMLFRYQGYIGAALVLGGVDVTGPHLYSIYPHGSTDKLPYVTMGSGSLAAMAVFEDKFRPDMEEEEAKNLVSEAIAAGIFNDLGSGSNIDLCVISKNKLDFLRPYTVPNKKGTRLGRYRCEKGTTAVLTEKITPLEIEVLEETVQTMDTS
Chain of UniProt P11309 (whole entry, looked up): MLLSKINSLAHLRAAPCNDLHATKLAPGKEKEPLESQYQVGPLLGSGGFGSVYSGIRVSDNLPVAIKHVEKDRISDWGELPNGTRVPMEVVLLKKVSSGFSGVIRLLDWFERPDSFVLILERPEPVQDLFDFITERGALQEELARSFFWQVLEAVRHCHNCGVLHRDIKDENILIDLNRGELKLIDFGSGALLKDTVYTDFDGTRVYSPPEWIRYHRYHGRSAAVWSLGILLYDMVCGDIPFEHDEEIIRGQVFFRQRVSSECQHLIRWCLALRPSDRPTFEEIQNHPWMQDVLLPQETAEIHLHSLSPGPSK
Chain of UniProt Q9NS87 (whole entry, looked up): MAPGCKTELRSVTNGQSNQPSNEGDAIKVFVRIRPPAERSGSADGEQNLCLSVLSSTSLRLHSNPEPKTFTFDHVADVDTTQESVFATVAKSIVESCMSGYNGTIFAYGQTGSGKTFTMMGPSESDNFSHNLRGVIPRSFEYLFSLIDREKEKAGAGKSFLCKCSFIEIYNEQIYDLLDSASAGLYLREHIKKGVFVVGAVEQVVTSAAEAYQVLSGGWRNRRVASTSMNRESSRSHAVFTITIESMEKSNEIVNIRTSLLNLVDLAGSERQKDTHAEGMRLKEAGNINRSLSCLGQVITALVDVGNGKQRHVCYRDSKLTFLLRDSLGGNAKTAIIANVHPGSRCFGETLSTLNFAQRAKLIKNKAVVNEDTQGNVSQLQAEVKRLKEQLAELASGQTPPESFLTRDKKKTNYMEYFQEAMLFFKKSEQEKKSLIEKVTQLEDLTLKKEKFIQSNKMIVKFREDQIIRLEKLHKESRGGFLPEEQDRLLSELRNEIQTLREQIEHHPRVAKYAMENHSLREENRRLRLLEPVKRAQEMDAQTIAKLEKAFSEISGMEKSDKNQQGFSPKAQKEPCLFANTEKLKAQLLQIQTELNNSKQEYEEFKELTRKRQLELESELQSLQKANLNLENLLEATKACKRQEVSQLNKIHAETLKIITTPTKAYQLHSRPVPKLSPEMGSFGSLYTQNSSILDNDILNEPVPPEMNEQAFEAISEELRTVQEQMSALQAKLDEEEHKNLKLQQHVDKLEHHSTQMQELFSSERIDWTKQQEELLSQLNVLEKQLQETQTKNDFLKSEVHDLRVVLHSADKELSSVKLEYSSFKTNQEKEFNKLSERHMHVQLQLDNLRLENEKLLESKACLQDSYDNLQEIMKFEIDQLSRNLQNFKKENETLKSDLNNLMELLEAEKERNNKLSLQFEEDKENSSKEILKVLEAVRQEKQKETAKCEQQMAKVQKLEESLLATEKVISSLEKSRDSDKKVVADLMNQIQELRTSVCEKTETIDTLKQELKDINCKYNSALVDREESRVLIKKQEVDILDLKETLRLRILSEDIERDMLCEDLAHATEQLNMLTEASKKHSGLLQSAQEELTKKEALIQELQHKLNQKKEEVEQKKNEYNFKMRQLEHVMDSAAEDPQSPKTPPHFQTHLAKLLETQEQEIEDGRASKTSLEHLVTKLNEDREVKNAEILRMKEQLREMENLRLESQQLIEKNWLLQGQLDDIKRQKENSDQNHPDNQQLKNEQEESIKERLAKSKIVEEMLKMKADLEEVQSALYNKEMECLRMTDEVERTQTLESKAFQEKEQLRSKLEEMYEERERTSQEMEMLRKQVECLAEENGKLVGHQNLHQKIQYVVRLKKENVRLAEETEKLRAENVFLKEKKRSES
Chain of UniProt P01902 (whole entry, unmodified, looked up): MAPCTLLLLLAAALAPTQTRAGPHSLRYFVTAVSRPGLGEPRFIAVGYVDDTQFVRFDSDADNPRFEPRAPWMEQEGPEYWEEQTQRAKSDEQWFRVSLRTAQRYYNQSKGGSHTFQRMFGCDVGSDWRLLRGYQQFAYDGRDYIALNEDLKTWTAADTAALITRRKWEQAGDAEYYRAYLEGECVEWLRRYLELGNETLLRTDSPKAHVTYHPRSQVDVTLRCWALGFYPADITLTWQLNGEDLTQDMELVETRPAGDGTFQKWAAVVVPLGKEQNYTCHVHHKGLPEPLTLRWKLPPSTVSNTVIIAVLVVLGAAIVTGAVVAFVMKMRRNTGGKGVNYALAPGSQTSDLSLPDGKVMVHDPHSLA
Chain of UniProt P05091 (whole entry, looked up): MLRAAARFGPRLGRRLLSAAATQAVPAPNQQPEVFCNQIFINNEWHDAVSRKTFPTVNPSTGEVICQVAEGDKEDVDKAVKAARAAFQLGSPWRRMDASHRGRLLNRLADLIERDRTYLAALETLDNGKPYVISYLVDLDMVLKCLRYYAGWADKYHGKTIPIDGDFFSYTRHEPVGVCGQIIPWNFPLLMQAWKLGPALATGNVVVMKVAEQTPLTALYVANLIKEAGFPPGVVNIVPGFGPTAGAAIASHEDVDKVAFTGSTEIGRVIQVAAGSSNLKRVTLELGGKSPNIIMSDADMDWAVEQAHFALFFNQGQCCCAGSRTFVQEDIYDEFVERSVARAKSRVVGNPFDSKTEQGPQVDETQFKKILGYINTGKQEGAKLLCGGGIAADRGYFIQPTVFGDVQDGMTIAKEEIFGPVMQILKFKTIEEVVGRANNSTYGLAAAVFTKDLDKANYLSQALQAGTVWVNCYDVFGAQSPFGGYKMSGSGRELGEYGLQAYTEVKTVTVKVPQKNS
Chain of UniProt P28907 (whole entry, looked up): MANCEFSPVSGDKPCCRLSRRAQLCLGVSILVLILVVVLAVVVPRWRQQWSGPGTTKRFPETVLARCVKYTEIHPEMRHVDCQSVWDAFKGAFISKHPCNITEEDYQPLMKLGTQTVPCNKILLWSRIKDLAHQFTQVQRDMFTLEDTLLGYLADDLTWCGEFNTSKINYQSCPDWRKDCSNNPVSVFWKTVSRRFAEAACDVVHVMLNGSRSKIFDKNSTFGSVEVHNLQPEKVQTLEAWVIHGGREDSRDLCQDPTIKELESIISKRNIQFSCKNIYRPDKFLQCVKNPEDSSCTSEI
Chain of UniProt P24280 (whole entry, looked up): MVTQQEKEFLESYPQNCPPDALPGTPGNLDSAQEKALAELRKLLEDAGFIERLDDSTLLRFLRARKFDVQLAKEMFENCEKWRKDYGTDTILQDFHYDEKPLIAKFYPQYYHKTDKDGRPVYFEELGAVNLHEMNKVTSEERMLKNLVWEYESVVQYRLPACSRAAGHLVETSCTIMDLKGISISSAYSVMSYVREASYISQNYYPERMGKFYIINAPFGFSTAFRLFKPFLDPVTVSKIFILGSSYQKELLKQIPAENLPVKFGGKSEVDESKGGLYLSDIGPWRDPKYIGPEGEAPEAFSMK

For NS(=O)(=O)c1ccc(-n2cc(CNc3ccccc3)c(-c3ccc(OCc4ccccc4)cc3)n2)cc1, the IC50 was 45.2 µM (Prostaglandin G/H synthase 1 (PTGS1, Homo sapiens, UniProt P23219); enzyme activity, inhibitor, absorbance).
O=C(Cc1ccc(F)cc1)NCCOc1ccc(-c2ccc(F)cc2)nn1 has an IC50 of 0.121 µM (V-type immunoglobulin domain-containing suppressor of T-cell activation (VSIR, Homo sapiens, UniProt Q9H7M9); enzyme activity, inhibitor, FRET).
CNC(=O)c1ccc2c(c1)N(C)S(=O)(=O)c1cnc(SC)nc1-2 has an IC50 of 6.2 µM (Kinesin-like protein KIF15 (Homo sapiens, UniProt Q9NS87); ATPase activity, inhibitor).
CC(=O)NCCN(CCC(=O)NCCN(CCC(=O)NCCN(CCC(=O)NCCC(N)=O)C(=O)[C@@H](N)CCCNC(=N)N)C(=O)[C@@H](N)CCCCN)C(=O)[C@@H](N)Cc1ccccc1 gave an IC50 of 18 ± 0.8 µM (HIV-1 TAR RNA; Tat/TAR complex displacement, FRET; room temperature, with: 10 nM Tat/TAR complex).
For Cn1cc(C(=O)c2ccccc2F)cc1/C=C(\C#N)C(N)=O, the IC50 was greater than 100 µM (Ribosomal protein S6 kinase alpha-3, C-terminal kinase domain (RPS6KA3, Homo sapiens, UniProt P51812); enzyme activity, inhibitor; 10 mM reduced glutathione, with: 0.1 mM ATP, peptide substrate).
For CSc1ncc(-c2cc(-c3ccc(Br)cc3)[nH]c(=N)c2C#N)n1Cc1ccccc1, the IC50 was 0.132 µM and < 0.15 µM (Serine/threonine-protein kinase pim-1 (PIM1, Homo sapiens, UniProt P11309); enzyme activity, inhibitor).
O=c1c(-n2ccnc2)c[nH]n1-c1ccccn1 gave an IC50 of 0.98 µM (EGLN2; enzyme activity, inhibitor, europium VBC binding; 10 µM FeSO4, 2 mM ascorbate, with: 20 µM 2-oxoglutarate).
CNC(=O)C1CCN(c2ccccc2NC(=O)c2ccc(-c3cc(O)ccc3C)c(C)c2)CC1 gave an IC50 of 0.0056 µM (Ephrin type-A receptor 4 (EPHA4, Homo sapiens, UniProt P54764); target engagement in cells, BRET).
COc1cc(OC)c(C(=O)/C=C/c2ccccc2)c(O)c1O has an IC50 of 28.7 µM (Dipeptidyl peptidase 4 (DPP4, Sus scrofa, UniProt P22411); enzyme activity, inhibitor, absorbance).
The IC50 of CNC(=O)C1CCN(c2ccccc2NC(=O)c2ccc(-c3cc(O)ccc3C)c(OC)c2)CC1 is reported as greater than 50 µM (Tyrosine-protein kinase Yes (YES1, Homo sapiens, UniProt P07947); target engagement, NanoBRET; intact cells).
The IC50 of O=C1/C=C\C(=O)N[C@@H](CC2CCCCC2)C(=O)N[C@@H](Cc2ccccc2)C(=O)N[C@@H](CCCNC(=O)c2cnccn2)C(=O)NCC[C@@H](C(=O)O)N1 is reported as 2.4 µM (Proto-oncogene tyrosine-protein kinase LCK (Lck, Mus musculus, UniProt P06240); enzyme activity, inhibitor, absorbance).
N=C(CF)NCCC[C@H](NC(=O)c1ccc(/N=N\c2ccccc2)cc1)c1nc2ccccc2[nH]1 has an IC50 of 23.8 µM (Protein-arginine deiminase type-2 (PADI2, Homo sapiens, UniProt Q9Y2J8); inhibitor, competitive ABPP; 2 h, 37 °C, 30 min preincubation, with: RFA probe 2 µM).
The IC50 of O=C(/C=C(\O)C(F)(F)C(F)(F)F)c1cccnc1 is reported as 0.75 ± 0.03 µM (formate-nitrite transporter (Plasmodium berghei, UniProt A0A509AFP9); L-lactate transport, inhibitor; yeast; pH 6.8, with: 14C-L-lactate 1 mM).
With Cc1n[nH]cc1-c1ccccc1Cl the IC50 was greater than 300 µM (Adenylate cyclase type 10 (Homo sapiens, UniProt Q96PN6); enzyme activity, inhibitor).
CCn1nc(-c2cc(Br)ccc2F)nc2c(=O)n(C)c(=O)nc1-2 gave an IC50 of 10.2 µM (Trypanothione reductase (TPR, Trypanosoma brucei brucei, UniProt P39051); inhibitor, DTNB-coupled colourimetric; with: substrate at Km).
For COC1C=CC=C(C)C(=O)NC2=CC(=O)C(NCCN(C)C)=C(CC(C)CC(OC)C(O)C(C)C=C(C)C1OC(N)=O)C2=O (centres unmarked), the IC50 was less than 1 µM (Lysine-specific demethylase 4B (KDM4B, Homo sapiens, UniProt O94953); enzyme activity, inhibitor, AlphaScreen).
With C=C(NC(=O)C(=C)NC(=O)c1csc(C2=NC3c4csc(n4)C4NC(=O)c5csc(n5)C(C(C)(O)C(C)O)NC(=O)C5CSC(=N5)C(=CC)NC(=O)C(C(C)O)NC(=O)c5csc(n5)C3(CC2)NC(=O)C(C)NC(=O)C(=C)NC(=O)C(Cc2ccc(O)cc2)NC(=O)C(C(C)CC)NC2C=Cc3c(C(C)O)cc(nc3C2O)C(=O)OC4C)n1)C(N)=O (centres unmarked) the IC50 was 0.34 ± 0.03 µM (PSMB7 in 20S proteasome; trypsin-like activity, inhibitor; purified human 20S proteasome; 37 °C, 15 min preincubation, with: Boc-Leu-Arg-Arg-AMC).
Cc1c2c(cc3oc(=O)cc(-c4ccc(O)cc4)c13)C(=O)c1cccc(O)c1C2=O gave an IC50 of greater than 100 µg/mL (mushroom tyrosinase; enzyme activity; with: L-DOPA).
C=CCNCC(=O)N1CCc2sccc2C1COc1ccc(Cl)cc1 (centres unmarked) has an IC50 of 0.18 µM (Protein-cysteine N-palmitoyltransferase HHAT (HHAT, Homo sapiens, UniProt Q5VTY9); enzyme activity, inhibitor).
CCc1ccc(NC(=O)C(C)Sc2nnc(C3CCN(C(=O)Nc4ccccc4)CC3)n2CC)cc1 (centres unmarked) gave an IC50 of < 7 µM and 3.83 µM (Seed linoleate 13S-lipoxygenase-1 (Glycine max, UniProt P08170); enzyme activity, inhibitor).
CSCC[C@H](NC(=O)[C@@H]1CCCN1C(=O)[C@@H](NC(=O)[C@H](Cc1ccc(O)cc1)NC(=O)[C@@H](N)CC(=O)O)C(C)C)C(=O)N[C@@H](CCC(=O)O)C(=O)N[C@@H](CCC(N)=O)C(=O)N1CCC[C@H]1C(=O)N[C@@H](CCCNC(=N)N)C(=O)N1CCC[C@H]1C(=O)O has an IC50 of greater than 70 µM (H-2 class I histocompatibility antigen, K-D alpha chain, 29 (H2-K1, Mus musculus, UniProt P01902); binding, competitor, radioligand competition; purified MHC, mutant peptide, with: radiolabeled standard peptide).
With N#Cc1c(O)nsc1Nc1ccccc1 the IC50 was 4 µM (NAD(+) hydrolase SARM1 (SARM1, Homo sapiens, UniProt Q6SZW1); NADase activity, inhibitor, measured: ADPR; SAM-TIR domain, wild type).
With O=C(c1cccc(I)c1)N1CCN(c2ccc(F)cc2)CC1 the IC50 was greater than 100 µM (SEC14 (Saccharomyces cerevisiae, UniProt P24280); enzyme activity, inhibitor, radiometric).
For Nc1ncc(-c2cnn(C3CCNCC3)c2)cc1-c1nc2ccc(Oc3ccccc3)cc2o1, the IC50 was 1.1 µM (Tyrosine-protein kinase JAK2 (JAK2, Homo sapiens, UniProt O60674); enzyme activity, inhibitor, TR-FRET).
C=C(NC(=O)C(=C)NC(=O)c1csc(C2=NC3c4csc(n4)C4NC(=O)c5csc(n5)C(C(C)(O)C(C)O)NC(=O)C5CSC(=N5)C(=CC)NC(=O)C(C(C)O)NC(=O)c5csc(n5)C3(CC2)NC(=O)C(C(C)CC)NC(=O)C(=C)NC(=O)C(C)NC(=O)C(C(C)CC)NC2C=Cc3c(C(C)O)cc(nc3C2O)C(=O)OC4C)n1)C(N)=O (centres unmarked) has an IC50 of 0.24 ± 0.05 µM (PSMB7 in 20S proteasome; trypsin-like activity, inhibitor; purified 20S proteasome; 15 min preincubation, 37 °C, with: Boc-Leu-Arg-Arg-AMC substrate).
CC(C)(C)OC(=O)N1CCN(c2ccc3c(O)c(C(=O)NCc4ccc(C#N)nc4)ncc3n2)CC1 gave an IC50 of 0.0019 µM (EGLN2; enzyme activity, inhibitor, AlphaScreen).
For O=C1NC(=O)/C(=C\c2ccc(-c3ccc(C(F)(F)F)cc3)cc2)S1, the IC50 was 42.7 µM (ADP-ribosyl cyclase/cyclic ADP-ribose hydrolase 1 (CD38, Homo sapiens, UniProt P28907); enzyme activity, inhibitor, fluorescence).
For CCOC(=O)N1CCC(Oc2nc3c(c(=O)n(C)c(=O)n3C)n2Cc2cccc(C)c2)CC1, the IC50 was 3.9 µM (Aldehyde dehydrogenase, mitochondrial (ALDH2, Homo sapiens, UniProt P05091); enzyme activity, inhibitor).
The IC50 of COc1cc(-c2nc3ccc(C(=O)NCCN4CCN(C5CCCCC5)CC4)cc3n2C2CCC2)cc(OC)c1OC is reported as 2.09 µM (Activin receptor type-1 (ACVR1, Homo sapiens, UniProt Q04771); target engagement in cells, BRET).

Repeated from above:
The IC50 of CNC(=O)C1CCN(c2ccccc2NC(=O)c2ccc(-c3cc(O)ccc3C)c(OC)c2)CC1 is reported as greater than 50 µM (Tyrosine-protein kinase Yes (YES1, Homo sapiens, UniProt P07947); target engagement, NanoBRET; intact cells).
O=C(Cc1ccc(F)cc1)NCCOc1ccc(-c2ccc(F)cc2)nn1 has an IC50 of 0.121 µM (V-type immunoglobulin domain-containing suppressor of T-cell activation (VSIR, Homo sapiens, UniProt Q9H7M9); enzyme activity, inhibitor, FRET).
